Measured values pooled from the literature.
Protocols differ between the studies behind these lines. ± gives the spread as reported.

CC(C)CC(NC(=O)C1OC(OC2C(OC3CCC4(C)C(CCC5(C)C4C(=O)C=C4C6CC(C)(C(=O)NC(CC(C)C)C(=O)O)CCC6(C)CCC45C)C3(C)C)OC(C(=O)NC(CC(C)C)C(=O)O)C(O)C2O)C(O)C(O)C1O)C(=O)O (stereo not drawn) — EC50 (Epstein-Barr virus; viral genome copies, quantitative PCR; superinfected Raji cells; 24 h): ~25 µM
CC1(CCCCCCCCCCOCCCOP(=O)(O)CO[C@H](CO)Cn2ccc(N)nc2=O)COC1 — EC50 (human alphaherpesvirus 3; cytopathic effect; HFF, Ellen): 1.01 ± 0.22 µM
O=C(O)/C=C/c1ccc(NC(=O)C2(NC(=O)c3ccc4c(C5CCCCC5)c5n(c4c3)CC(=O)Nc3ccccc3-5)CCCC2)cc1 — EC50 (hepatitis C virus; replicon replication; Huh-7, genotype 1b Con1): 0.008 µM
C=C(C)[C@@H]1CC[C@]2(C(N)=O)CC[C@]3(C)[C@H](CC[C@@H]4[C@@]5(C)CCCNC(C)(C)[C@@H]5CC[C@]43C)[C@@H]12 — EC50 (human papillomavirus 11; viral replication, inhibitor, luciferase; C-33-A): > 1.2 µM
CCOC(=O)[C@@H](C)NP(=O)(CO[C@H](CF)CN1CNC(N)=NC1=O)N[C@H](C)C(=O)OCC — EC50 (varicella-zoster virus; plaque formation; HEL, Oka, TK+): > 100 µM
COc1ccc2c(c1)C=C(C(=O)N1CCOCC1)Cn1c-2c(C2CCCCC2)c2ccc(C(=O)NS(=O)(=O)N(C)C)cc21 — EC50 (hepatitis C virus; replicon replication; Huh-7 replicon cells, genotype 1b Con1): < 0.1 µM
Nc1ccn(C[C@@H](CO)OCP(=O)(O)OCCCS(=O)(=O)CCCCCCCCCCCCC2CCC2)c(=O)n1 — EC50 (human alphaherpesvirus 2; cytopathic effect; HFF, G): 0.01 ± 0.01 µM
COC(=O)C(C)NC(=O)C1OC(OC2C(OC3CCC4(C)C(CCC5(C)C4C(=O)C=C4C6CC(C)(C(=O)O)CCC6(C)CCC45C)C3(C)C)OC(C(=O)NC(C)C(=O)OC)C(O)C2O)C(O)C(O)C1O (stereo not drawn) — EC50 (Epstein-Barr virus; EA/VCA antigen expression, indirect immunofluorescence; superinfected Raji cells; 24 h): 45 µM
Nc1ccn(C[C@@H](CO)OCP(=O)(O)OCCCS(=O)(=O)CCCCCCCCCCCCCC2CCC2)c(=O)n1 — EC50 (human alphaherpesvirus 2; cytopathic effect; HFF, G): 0.14 ± 0.23 µM
COc1ccc(S(=O)(=O)NCc2c[nH]nc2-c2cccs2)cc1 — EC50 (Plasmodium falciparum; parasite growth): 0.117 µM
COC(=O)C(CCC(=O)O)NC(=O)C1OC(OC2C(OC3CCC4(C)C(CCC5(C)C4C(=O)C=C4C6CC(C)(C(=O)O)CCC6(C)CCC45C)C3(C)C)OC(C(=O)NC(CCC(=O)O)C(=O)OC)C(O)C2O)C(O)C(O)C1O (stereo not drawn) — EC50 (Epstein-Barr virus; EA/VCA antigen expression, indirect immunofluorescence; superinfected Raji cells; 24 h): 175 µM
Nc1nc2c(ncn2COCCOC(=O)[C@@H](N)CS)c(=O)[nH]1 — EC50 (human alphaherpesvirus 2; viral cytopathic effect, CPE inhibition): 14.7 µM
CC1(CCCCCCCCCCCCOCCCOP(=O)(O)CO[C@H](CO)Cn2ccc(N)nc2=O)COC1 — EC50 (human alphaherpesvirus 3; cytopathic effect; HFF, Ellen): 0.69 ± 0.54 µM
C[C@H](N)C(=O)OCCOCn1cnc2c(=O)[nH]c(N)nc21 — EC50 (human alphaherpesvirus 2; viral cytopathic effect, CPE inhibition): 17.7 µM
C=C(C)[C@@H]1CC[C@]2(C(=O)NC(CO)Cc3ccccc3)CC[C@]3(C)[C@H](CC[C@@H]4[C@@]5(C)CCCNC(C)(C)[C@@H]5CC[C@]43C)[C@@H]12 (stereo partly drawn) — EC50 (human papillomavirus 11; viral replication, inhibitor, luciferase; C-33-A): > 0.24 µM
c1ccc(-c2nc(-c3ccc4ccccc4c3)c[nH]2)cc1 — EC50 (Schistosoma mansoni; worm killing; female worms; no effect): > 100 µM
CNC(=O)c1c(F)cccc1Nc1nc(Nc2cc3c(cc2OC)CCN3C(=O)CN(C)C)nc2[nH]ccc12 — EC50 (Leishmania major; parasite growth; promastigote): > 25.1 µM
CC1(C(=O)O)CCC2(C)CCC3(C)C(=CC(=O)C4C5(C)CCC(OC6OC(C(=O)NC(CCCCNC(=O)OCc7ccccc7)C(=O)O)C(O)C(O)C6OC6OC(C(=O)NC(CCCCNC(=O)OCc7ccccc7)C(=O)O)C(O)C(O)C6O)C(C)(C)C5CCC43C)C2C1 (stereo not drawn) — EC50 (Epstein-Barr virus; viral genome copies, quantitative PCR; superinfected Raji cells; 24 h): > 1000 µM
C=C(C)[C@@H]1CC[C@]2(CO)CC[C@]3(C)[C@H](CC[C@@H]4[C@@]5(C)CCCNC(C)(C)[C@@H]5CC[C@]43C)[C@@H]12 — EC50 (human papillomavirus 11; viral replication, inhibitor, luciferase; C-33-A): > 6 µM
COC(=O)CCC(NC(=O)C1OC(OC2C(OC3CCC4(C)C(CCC5(C)C4C(=O)C=C4C6CC(C)(C(=O)NC(CCC(=O)OC)C(=O)OC)CCC6(C)CCC45C)C3(C)C)OC(C(=O)NC(CCC(=O)OC)C(=O)OC)C(O)C2O)C(O)C(O)C1O)C(=O)OC (stereo not drawn) — EC50 (Epstein-Barr virus; viral genome copies, quantitative PCR; superinfected Raji cells; 24 h): > 1000 µM
CC1(CCCCCCCCCCCCCCOCCCOP(=O)(O)CO[C@H](CO)Cn2ccc(N)nc2=O)COC1 — EC50 (human alphaherpesvirus 3; cytopathic effect; HFF, Ellen): 0.03 ± 0.03 µM
Cn1c(-c2ccccc2)c(C2CCCCC2)c2ccc(C(=O)NC3(C(=O)Nc4ccc(/C=C/C(=O)O)cc4)CCCC3)cc21 — EC50 (hepatitis C virus; replicon replication; Huh-7, genotype 1b Con1): 0.1 µM
Nc1ccn(C[C@@H](CO)OCP(=O)(O)OCCCS(=O)(=O)CCCCCCCCCCC2CCC2)c(=O)n1 — EC50 (human alphaherpesvirus 3; cytopathic effect; HFF, Ellen): 0.02 ± 0.01 µM
C=C(C)[C@@H]1CCC=C2CC[C@]3(C)[C@H](CC[C@@H]4[C@@]5(C)CCCNC(C)(C)[C@@H]5CC[C@]43C)[C@H]21 — EC50 (human papillomavirus 11; viral replication, inhibitor, luciferase; C-33-A): > 1.2 µM

Excerpt of the above:
CNC(=O)c1c(F)cccc1Nc1nc(Nc2cc3c(cc2OC)CCN3C(=O)CN(C)C)nc2[nH]ccc12 — EC50 (Leishmania major; parasite growth; promastigote): > 25.1 µM
CC1(C(=O)O)CCC2(C)CCC3(C)C(=CC(=O)C4C5(C)CCC(OC6OC(C(=O)NC(CCCCNC(=O)OCc7ccccc7)C(=O)O)C(O)C(O)C6OC6OC(C(=O)NC(CCCCNC(=O)OCc7ccccc7)C(=O)O)C(O)C(O)C6O)C(C)(C)C5CCC43C)C2C1 (stereo not drawn) — EC50 (Epstein-Barr virus; viral genome copies, quantitative PCR; superinfected Raji cells; 24 h): > 1000 µM
C=C(C)[C@@H]1CC[C@]2(CO)CC[C@]3(C)[C@H](CC[C@@H]4[C@@]5(C)CCCNC(C)(C)[C@@H]5CC[C@]43C)[C@@H]12 — EC50 (human papillomavirus 11; viral replication, inhibitor, luciferase; C-33-A): > 6 µM
COC(=O)CCC(NC(=O)C1OC(OC2C(OC3CCC4(C)C(CCC5(C)C4C(=O)C=C4C6CC(C)(C(=O)NC(CCC(=O)OC)C(=O)OC)CCC6(C)CCC45C)C3(C)C)OC(C(=O)NC(CCC(=O)OC)C(=O)OC)C(O)C2O)C(O)C(O)C1O)C(=O)OC (stereo not drawn) — EC50 (Epstein-Barr virus; viral genome copies, quantitative PCR; superinfected Raji cells; 24 h): > 1000 µM
